Assay results pooled from the literature.
Protocols differ between the studies behind these lines. ± marks the error that the study gave.

SMILES	tested on	test	system	conditions	scale	measurement	value
CC[C@H](C)[C@H](NC(=O)[C@H](Cc1ccccc1)NC(=O)[C@H](CCC(=O)O)NC(=O)[C@H](CCCCNC(=O)COCCOCCNC(=O)COCCOCCNC(=O)CC[C@H](NC(=O)CCCCCCCCCCCCCCCCC(=O)O)C(=O)O)NC(=O)[C@H](C)NC(=O)[C@H](C)NC(=O)[C@H](CCC(N)=O)NC(=O)CNC(=O)[C@H](CCC(=O)O)NC(=O)[C@H](CC(C)C)NC(=O)[C@H](Cc1ccc(O)cc1)NC(=O)[C@H](CO)NC(=O)[C@H](CO)NC(=O)[C@@H](NC(=O)[C@H](CC(=O)O)NC(=O)[C@H](CO)NC(=O)[C@@H](NC(=O)[C@H](Cc1ccccc1)NC(=O)[C@@H](NC(=O)CNC(=O)[C@H](CCC(=O)O)NC(=O)C(C)(C)NC(=O)[C@@H](N)Cc1cnc[nH]1)[C@@H](C)O)[C@@H](C)O)C(C)C)C(=O)N[C@@H](C)C(=O)N[C@@H](Cc1c[nH]c2ccccc12)C(=O)N[C@@H](CC(C)C)C(=O)N[C@H](C(=O)N[C@@H](CCCNC(=N)N)C(=O)NCC(=O)N[C@@H](CCCNC(=N)N)C(=O)NCC(=O)O)C(C)C	–	ELISA	diabetic Sprague Dawley rats, male, serum	subcutaneous, 20 µg daily, comparison to single hydrogel injection	–	steady-state concentration	170 ± 60 ng/mL
CC[C@H](C)[C@H](NC(=O)[C@H](Cc1ccccc1)NC(=O)[C@H](CCC(=O)O)NC(=O)[C@H](CCCCNC(=O)COCCOCCNC(=O)COCCOCCNC(=O)CC[C@H](NC(=O)CCCCCCCCCCCCCCCCC(=O)O)C(=O)O)NC(=O)[C@H](C)NC(=O)[C@H](C)NC(=O)[C@H](CCC(N)=O)NC(=O)CNC(=O)[C@H](CCC(=O)O)NC(=O)[C@H](CC(C)C)NC(=O)[C@H](Cc1ccc(O)cc1)NC(=O)[C@H](CO)NC(=O)[C@H](CO)NC(=O)[C@@H](NC(=O)[C@H](CC(=O)O)NC(=O)[C@H](CO)NC(=O)[C@@H](NC(=O)[C@H](Cc1ccccc1)NC(=O)[C@@H](NC(=O)CNC(=O)[C@H](CCC(=O)O)NC(=O)C(C)(C)NC(=O)[C@@H](N)Cc1cnc[nH]1)[C@@H](C)O)[C@@H](C)O)C(C)C)C(=O)N[C@@H](C)C(=O)N[C@@H](Cc1c[nH]c2ccccc12)C(=O)N[C@@H](CC(C)C)C(=O)N[C@H](C(=O)N[C@@H](CCCNC(=N)N)C(=O)NCC(=O)N[C@@H](CCCNC(=N)N)C(=O)NCC(=O)O)C(C)C	–	–	healthy human	subcutaneous, 1.5 mg once weekly, 0 h, steady state	reference: placebo, baseline	change in QTcB	8.8 ms
NCc1cc2c(cc1F)C(=O)N(C1CCC(=O)NC1=O)C2 (stereo not shown)	–	–	male Cynomolgus monkey, whole blood	without inhibitor	–	half-life	7.7 min
C[C@@H](Oc1ccc(S(C)(=O)=O)cc1C(=O)N1C[C@@H]2C[C@]2(c2cc(C(F)(F)F)on2)C1)C(F)(F)F	–	–	human	oral plus intravenous microtracer, dose not given	–	subjects with eye disorders	16.7%
COc1cc(C)c(-c2c(C)cc(OC)c3c(=O)cc(-c4ccc(N(C)C)cc4)oc23)c2oc(-c3ccc(N(C)C)cc3)cc(=O)c12	–	reverse phase HPLC	DMSO	25 mg/mL, 24 h, 22 °C	–	purity	95.8%
CC(C)Nc1nc2cc(Cl)c(Cl)cc2n1[C@H]1O[C@@H](CO)[C@H](O)[C@@H]1O	–	population PK model	human	oral, 800 mg, no proton pump inhibitor	–	Ka	0.697 h⁻¹
N#CC(c1ccc(Cl)cc1)c1c(Cl)cc(-n2ncc(=O)[nH]c2=O)cc1Cl (stereo not shown)	THP-1	pyroptotic LDH release	–	2 µM, 40 min, with: LPS then nigericin	–	inhibition	-8.62%
N#C[C@@]1(c2ccc3c(N)ncnn23)O[C@H](CO)[C@@H](O)[C@H]1O	–	–	monkey plasma	100 µM	–	fraction unbound	0.816
Cc1ccc(C(=O)N(CCCN)C(c2nc3snc(C)c3c(=O)n2Cc2ccccc2)C(C)C)cc1 (stereo not shown)	–	refers to: Dysphagia	human patients	intravenous, dose not given, CTCAE grade ≥3, all doses	–	patients with adverse events	5%
CC(C)[C@@H](CN1CC[C@@](C)(c2cccc(O)c2)[C@@H](C)C1)NC(=O)[C@H]1Cc2ccc(O)cc2CN1	–	–	Sprague-Dawley rat, brain	intraperitoneal, 3 mg/kg	–	AUCtotal	7970 ng·h/g
COc1ncc(-c2nc3c(n2C(C)C)[C@H](c2ccc(Cl)cc2)N(c2cc(Cl)cn(C)c2=O)C3=O)c(OC)n1	–	–	human patients, plasma	oral, 12.5 mg, high-dose arm, cycle 1 day 1	–	median half-life	7.2 h
Cc1ccsc1	THP-1	pyroptotic LDH release	–	2 µM, 40 min, with: LPS then nigericin	–	inhibition	-19%
CC(C)(C(=O)N1CCOc2c(C#N)cncc2C1)C(F)F	–	refers to: Psychiatric disorders	human	oral, 10 mg once daily, 14 days, multiple ascending dose	–	subjects with adverse event	0%
Cc1ccc([C@@H]2O[C@H](CO)[C@@H](O)[C@H](O)[C@H]2O)cc1Cc1ccc(-c2ccc(F)cc2)s1	–	–	Japanese type 2 diabetes patients	100 mg, day 15, 24 h urine collection	reference: baseline	urinary sodium excretion change	7.47 mEq
Cc1occc(=O)c1[O-].[Cl-].[W+4].c1cc[cH-]c1.c1cc[cH-]c1	–	cyclic voltammetry	–	–	reference: Ag/AgCl	oxidation potential	569 mV
O=C1Nc2ccc(Cl)cc2[C@@](C#CC2CC2)(C(F)(F)F)O1	–	–	human, plasma	oral, 600 mg, day 28, median	–	trough plasma concentration	2460 ng/mL
O=C1CC[C@H](N2Cc3cc(N4CCN(CC5CCN(c6ccc([C@@H]7c8ccc(O)cc8CC[C@@H]7c7ccccc7)cc6)CC5)CC4)ccc3C2=O)C(=O)N1	–	–	human	oral, 200 mg, with: rosuvastatin 10 mg	–	participants with TEAE dizziness	8.3%
CN1C[C@H](COc2nccc3c(NCc4ccco4)cc(Cl)nc23)OC1=O	–	–	rabbit NZW female, isolated Langendorff heart	3 µM, 15 min	–	RR interval	415 ms
COc1ccc2[nH]c([S+]([O-])Cc3ncc(C)c(OC)c3C)nc2c1 (stereo not shown)	–	–	healthy Chinese volunteers, plasma	oral, 20 mg, enteric-coated capsules, CYP2C19 normal metabolizers	–	AUC(0-inf)	510 ± 536 ng·h/mL

Excerpt of the above:
SMILES	tested on	test	system	conditions	scale	measurement	value
C[C@@H](Oc1ccc(S(C)(=O)=O)cc1C(=O)N1C[C@@H]2C[C@]2(c2cc(C(F)(F)F)on2)C1)C(F)(F)F	–	–	human	oral plus intravenous microtracer, dose not given	–	subjects with eye disorders	16.7%
